Results of several laboratories.
± gives the spread as reported.
Target: D(3) dopamine receptor (DRD3, Homo sapiens, UniProt P35462)
UniProt P35462, sequence (whole entry, looked up): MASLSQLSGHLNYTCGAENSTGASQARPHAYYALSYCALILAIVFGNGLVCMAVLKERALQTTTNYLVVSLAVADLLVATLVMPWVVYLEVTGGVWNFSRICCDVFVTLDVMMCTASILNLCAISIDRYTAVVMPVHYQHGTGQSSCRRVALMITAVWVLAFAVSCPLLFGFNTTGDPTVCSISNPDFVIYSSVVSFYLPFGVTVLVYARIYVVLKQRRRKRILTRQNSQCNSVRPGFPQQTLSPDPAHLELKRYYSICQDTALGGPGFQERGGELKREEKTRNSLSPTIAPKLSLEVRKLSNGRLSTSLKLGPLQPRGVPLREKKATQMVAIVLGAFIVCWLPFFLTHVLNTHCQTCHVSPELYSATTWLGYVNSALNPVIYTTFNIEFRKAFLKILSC

With `CC(C)Cn1c(SCC(=O)N2CCc3ccccc3C2)nc2cc(Cl)ccc2c1=O` the inhibition was -6% (ligand displacement, radioligand; 10 µM).
For `COc1ccc(-c2csc3ncnc(NCCCN4CCN(c5ccccc5)CC4)c23)cc1`, the inhibition was 91.1% (enzyme activity, inhibitor; 10 µM).
With `O=C(CN1CCO[C@@H](COc2cccc(Cl)c2)C1)N1CCc2ccccc21` the inhibition was 27.3% (radioligand binding; concentration not given, added: [3H]N-methylspiperone).
With `COc1cc(CNCC(O)c2ccccc2)cc(Cl)c1OCC(N)=O` (centres unmarked) the inhibition was -27.8% (enzyme activity, inhibitor; 10 µM).
`Cc1cc(O)c2c(c1)C(=O)c1cc(O)c(S(=O)(=O)O)c(O)c1C2=O` gave an agonist effect of 6.65% (cAMP level, agonist, HTRF; transfected CHO cells; 50 µM; reference: control agonist).
For `Cc1ccc(NS(=O)(=O)c2c(C)[nH]c(C)c2C(=O)N2CCCCC2)cc1Cl`, the Imax was 94 ± 3.7% (β-arrestin recruitment, agonist, PathHunter; reference: dopamine).
For `CC1Cc2ccccc2N1C(=O)CN1CCN(Cc2ccccc2)CC1` (centres unmarked), the inhibition was 59.7% (radioligand binding; concentration not given, added: [3H]N-methylspiperone).
For `O=C1c2cc(O)cc(O)c2C(=O)c2c(O)cc(CO)cc21`, the agonist effect was 8.4% (cAMP level, agonist, HTRF; transfected CHO cells; 50 µM; reference: control agonist).
The inhibition of `Cn1c(=O)c(SCC(=O)NCCN2CCC(Cc3ccccc3)CC2)nc2ccccc21` is reported as 95.5% (enzyme activity, inhibitor; 10 µM).
The Imax of `Cc1ccc(NS(=O)(=O)c2c(C)[nH]c(C)c2C(=O)N2CCCC2)cc1F` is reported as 99 ± 2.4% (β-arrestin recruitment, agonist, PathHunter; reference: dopamine).
`O=C1c2sc(-c3ccc(N4CCC(F)C4)nc3F)nc2CCN1c1cccnc1` (centres unmarked) has an inhibition of -2% (ligand displacement, radioligand; 1 µM).

Excerpt of the above:
For `O=C1c2cc(O)cc(O)c2C(=O)c2c(O)cc(CO)cc21`, the agonist effect was 8.4% (cAMP level, agonist, HTRF; transfected CHO cells; 50 µM; reference: control agonist).
